Measurements from different studies.
Protocols differ between the studies behind these lines.
Medium: plasma

SMILES	system	conditions	clearance
Cc1cc(C(=O)N[C@@H](CC(=O)NC(C)(C)C)C(=O)NCCNC(=O)c2cccc(-n3cccn3)c2)no1	mouse	intravenous, 0.1 mg/kg	136 mL/min/kg
COC(=O)C1=CNC=C(C(=O)OC)C1c1ccc(F)c(C(F)(F)F)c1	male C57BL/6 mouse	intravenous, 2 mg/kg	25.4 mL/min/kg
O=S(=O)(N[C@H]1CCC[C@@H](N2c3ccccc3CCc3ccccc32)[C@@H]1O)c1ccc(OC(F)(F)F)cc1	mouse	intravenous, 1 mg/kg	32.5 mL/min/kg
Cc1cc(NCC(=O)C(C)C)c2nc(N3CCOC[C@H]3C)cc(=O)n2c1	C57BL/6 mouse	intraperitoneal, 10 mg/kg, single dose	59.8 mL/min/kg
Cc1ncsc1-c1ccc(CNC(=O)[C@@H]2C[C@@H](O)CN2C(=O)[C@@H](NC(=O)COCC(C)(COCCOCCOCCNC(=O)C[C@@H]2N=C(c3ccc(Cl)cc3)c3c(sc(C)c3C)-n3c(C)nnc32)COCCOCCOCCNC(=O)C[C@@H]2N=C(c3ccc(Cl)cc3)c3c(sc(C)c3C)-n3c(C)nnc32)C(C)(C)C)cc1	male C57BL/6 mouse	intravenous, 5 mg/kg, single dose	3.02 mL/min/kg
COc1cc(OCCN2CCOCC2)cnc1-c1nc2cc(OC(F)(F)F)ccc2[nH]1	mouse	intraperitoneal, 100 mg/kg	2.74 mL/min
Cc1cc(C(=O)N[C@@H](CC(=O)NC(C)(C)C)C(=O)NCCNC(=O)c2cc(-c3ccccc3)ccn2)no1	mouse	intravenous, 0.1 mg/kg	119 mL/min/kg
O=C(C1CC1)N1CCC=C(c2cc3c(Nc4cc5ncsc5cc4F)ncnc3s2)C1	mouse	intravenous, 10 mg/kg	0.62 mL/min/kg
C/C(N)=N/C(=N\S(=O)(=O)c1ccc(C(F)(F)F)cc1)N1C[C@H](c2ccccc2)C(c2ccc(Cl)cc2)=N1	C57BL/6 mouse	intravenous, 10 mg/kg	15.9 mL/min/kg
COc1cnc2cccc(N3CCc4c(cc(Cn5ccnc5)cc4-c4cn(C)nc4C(F)(F)F)C3=O)c2c1	male CD-1 mouse	intravenous, 3 mg/kg	25 mL/min/kg
O=C1CCC(N2C(=O)c3ccc(N4CCC(C(=O)N5CCC(CCN6CCC(CNC(=O)c7cccc(-c8noc(C(F)(F)F)n8)c7)(c7nc(-c8ccccc8)cs7)CC6)CC5)CC4)cc3C2=O)C(=O)N1 (stereo not shown)	CD-1 mouse	intraperitoneal, 30 mg/kg	41.5 mL/min/kg
CCC(=O)NC1CC=C(c2cc3c(Nc4cc5ncsc5cc4F)ncnc3s2)CC1 (racemic)	mouse	intravenous, 10 mg/kg	0.46 mL/min/kg
N#CCCC1CCN(C(=S)c2ccc(-c3cc(Cl)ccc3Cl)o2)CC1	male BALB/c mouse	intravenous, 5 mg/kg	66.6 mL/min/kg
CCC1(CC)CC(=O)N(C2CCOc3ccc(C(=O)NC4CC(C)(C)Oc5ccccc54)cc32)C(=N)N1 (stereo not shown)	male C57BL/6 mouse	intravenous, 2 mg/kg	42.4 mL/min/kg
Cn1c2cc([S+](C)[O-])sc2c2cnn(Cc3cccc(N)c3)c(=O)c21 (stereo not shown)	male BALB/c mouse	intravenous, 1 mg/kg, single dose	17.1 mL/min/kg
O=C(NCCCCc1ccccc1)n1c(=O)oc2cc(-c3ccc(F)cc3)ccc21	CD-1 mouse	intraperitoneal, 10 mg/kg	17.6 mL/min/kg
